{"data": "Measured values collected from several papers"}
{"Compound": "Cc1cn(C(=O)c2c(-c3c(Cl)cc(Cl)cc3Cl)noc2C(C)(C)F)c2cccc(/C=C/C(=O)O)c12", "system": "human patients", "conditions": "125 mg bid, cycle 1 day 1", "endpoint": "Tmax", "result": "1.98 h"}
{"Compound": "C[C@H](O)c1cc(C(=O)N[C@@H](C)Cn2ccc(-c3ccc(C#N)c(Cl)c3)n2)n[nH]1", "system": "human, fasted, plasma", "conditions": "oral, 300 mg darolutamide tablet, median", "endpoint": "tmax", "result": "3.5 h"}
{"Compound": "C=CC(=O)Nc1cc(Nc2nccc(-c3cn(C)c4ccccc34)n2)c(OC)cc1N(C)CCN(C)C", "system": "human, plasma", "conditions": "oral, cycle 3 day 1, safety run-in, added: cisplatin plus pemetrexed", "endpoint": "Tmax at steady state", "result": "5.91 h"}
{"Compound": "Cc1cc(C)c(CNC(=O)c2cc(Cl)c3c(c2C)O[C@@](C)([C@H]2CC[C@H](N(C)C)CC2)O3)c(=O)[nH]1", "system": "human, plasma", "conditions": "oral, 200 mg, cycle 1 day 15", "endpoint": "Tmax unbound drug", "result": "3.91 h"}
{"Compound": "O=C(Nc1cnccc1Cl)N1CCN(Cc2ccc3c(c2)OC(F)(F)O3)CC1", "system": "human healthy young men, plasma", "conditions": "oral, 25 mg once daily, day 1, multiple dose median", "endpoint": "tmax", "result": "1.24 h"}
{"Compound": "CN(C)N=Nc1[nH]cnc1C(N)=O", "system": "human patients, plasma", "conditions": "intravenous, 1000 mg/m^2 over 1 h, cycle 2 day 1, staggered with twice-weekly co-drug", "endpoint": "Tmax (median)", "result": "1 h"}
{"Compound": "Cc1noc(C)c1-c1cc(C(O)(c2ccccn2)c2ccccn2)c2nc(C3CC3)[nH]c2c1", "system": "human patients, plasma", "conditions": "oral, 1.4 mg, cycle 1 day 8, monotherapy", "endpoint": "Tmax", "result": "0.6 h"}
{"Compound": "N#Cc1ccc2c(c1)[C@H]1CCCN(C(=O)c3ccc4[nH]cnc4c3)[C@H]1C2", "system": "human, plasma", "conditions": "oral, 240 mg once daily, steady state, median", "endpoint": "tmax steady state", "result": "40 min"}
{"Compound": "Cc1nc2ccc(F)cc2n1-c1nc(N)c(F)c(Nc2ccc(C(F)(F)F)cc2)n1", "system": "human patients, plasma", "conditions": "oral, 400 mg twice weekly, cycles 1 and 2 pooled", "endpoint": "Tmax median", "result": "3.55 h"}
{"Compound": "C=CC(=O)Nc1cc(Nc2nccc(-c3c[nH]c4ccccc34)n2)c(OC)cc1N(C)CCN(C)C", "system": "human, plasma", "conditions": "cycle 3 day 1, safety run-in, added: cisplatin plus pemetrexed", "endpoint": "Tmax at steady state", "result": "4.03 h"}
{"Compound": "COc1cc(C(=O)NC2CCN(C)CC2)c(F)cc1Nc1ncc(C(F)(F)F)c(Oc2cccc3c2C(=O)N(C)C3)n1", "system": "human patients, plasma", "conditions": "oral, 10 mg once daily repeated, median", "endpoint": "Tmax at steady state", "result": "3.51 h"}
{"note": "A few entries again:"}
{"Compound": "N#Cc1ccc2c(c1)[C@H]1CCCN(C(=O)c3ccc4[nH]cnc4c3)[C@H]1C2", "system": "human, plasma", "conditions": "oral, 240 mg once daily, steady state, median", "endpoint": "tmax steady state", "result": "40 min"}
